Experimental data gathered from unrelated publications.
Values joined by “and” are separate records of one study, mostly repeats; a detail may differ. pEC50: −log10 of the molar value.
CALCR: Calcitonin receptor (CALCR, Homo sapiens, UniProt P30988)
Sequence of UniProt P30988 (whole entry, looked up): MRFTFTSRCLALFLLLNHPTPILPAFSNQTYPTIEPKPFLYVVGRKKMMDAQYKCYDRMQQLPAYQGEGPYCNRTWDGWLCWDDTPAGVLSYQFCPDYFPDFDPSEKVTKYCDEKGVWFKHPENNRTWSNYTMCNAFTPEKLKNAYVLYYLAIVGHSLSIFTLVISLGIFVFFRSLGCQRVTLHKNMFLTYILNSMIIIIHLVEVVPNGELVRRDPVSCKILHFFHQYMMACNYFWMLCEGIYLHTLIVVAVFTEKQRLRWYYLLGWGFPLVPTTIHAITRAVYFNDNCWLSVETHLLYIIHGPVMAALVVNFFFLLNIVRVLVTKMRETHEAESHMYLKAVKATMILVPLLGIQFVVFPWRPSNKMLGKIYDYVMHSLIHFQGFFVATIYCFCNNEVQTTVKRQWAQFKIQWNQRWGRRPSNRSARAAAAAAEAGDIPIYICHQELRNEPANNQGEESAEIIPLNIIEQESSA
VHL/BRD9 with Elongin B/C: VHL/BRD9, with Elongin B/C (Homo sapiens, UniProt P40337+Q9H8M2)
Sequence of UniProt Q9H8M2 (whole entry, looked up): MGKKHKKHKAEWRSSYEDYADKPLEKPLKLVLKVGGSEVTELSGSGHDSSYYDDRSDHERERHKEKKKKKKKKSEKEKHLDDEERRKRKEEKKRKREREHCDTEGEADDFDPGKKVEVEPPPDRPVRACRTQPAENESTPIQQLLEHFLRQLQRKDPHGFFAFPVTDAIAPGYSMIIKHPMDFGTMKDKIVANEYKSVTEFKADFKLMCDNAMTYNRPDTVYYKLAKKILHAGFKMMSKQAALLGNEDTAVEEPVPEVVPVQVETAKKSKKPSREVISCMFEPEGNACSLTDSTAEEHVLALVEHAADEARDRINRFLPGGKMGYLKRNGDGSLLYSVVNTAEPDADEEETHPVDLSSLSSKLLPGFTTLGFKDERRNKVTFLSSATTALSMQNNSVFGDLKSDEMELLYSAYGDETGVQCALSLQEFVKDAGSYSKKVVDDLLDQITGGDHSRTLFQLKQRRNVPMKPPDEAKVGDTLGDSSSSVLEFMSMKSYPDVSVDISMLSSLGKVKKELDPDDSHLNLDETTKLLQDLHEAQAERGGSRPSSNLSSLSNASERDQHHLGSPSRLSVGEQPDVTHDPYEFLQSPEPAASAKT
Sequence of UniProt P40337 (whole entry, looked up): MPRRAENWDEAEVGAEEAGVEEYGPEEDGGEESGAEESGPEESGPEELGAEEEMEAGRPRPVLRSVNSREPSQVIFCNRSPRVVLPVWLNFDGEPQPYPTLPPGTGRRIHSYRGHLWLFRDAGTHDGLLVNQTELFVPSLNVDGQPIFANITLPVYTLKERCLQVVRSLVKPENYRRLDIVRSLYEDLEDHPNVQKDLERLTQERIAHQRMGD
YWHAG/RELA phospho-Ser45 p65 peptide: YWHAG/RELA, phospho-Ser45 p65 peptide (Homo sapiens, UniProt P61981+Q04206)
Sequence of UniProt P34972 (whole entry, looked up): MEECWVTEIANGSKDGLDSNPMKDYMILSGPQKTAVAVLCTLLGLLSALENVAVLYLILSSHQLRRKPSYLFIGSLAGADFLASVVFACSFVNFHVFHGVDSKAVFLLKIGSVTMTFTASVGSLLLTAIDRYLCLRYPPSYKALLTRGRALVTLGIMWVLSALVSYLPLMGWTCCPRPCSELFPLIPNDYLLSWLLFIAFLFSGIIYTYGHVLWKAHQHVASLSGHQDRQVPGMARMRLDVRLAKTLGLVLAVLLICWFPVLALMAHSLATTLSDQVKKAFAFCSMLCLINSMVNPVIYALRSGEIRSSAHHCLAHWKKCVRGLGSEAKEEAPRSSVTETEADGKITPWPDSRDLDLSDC
Sequence of UniProt P61981 (whole entry, looked up): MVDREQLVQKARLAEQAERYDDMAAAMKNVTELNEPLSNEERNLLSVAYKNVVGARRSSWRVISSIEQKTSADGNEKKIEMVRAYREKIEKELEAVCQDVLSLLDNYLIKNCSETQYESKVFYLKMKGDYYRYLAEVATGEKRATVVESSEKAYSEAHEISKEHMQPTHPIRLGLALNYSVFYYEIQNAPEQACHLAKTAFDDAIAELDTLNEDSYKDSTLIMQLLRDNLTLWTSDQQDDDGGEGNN
Sequence of UniProt Q04206 (whole entry, looked up): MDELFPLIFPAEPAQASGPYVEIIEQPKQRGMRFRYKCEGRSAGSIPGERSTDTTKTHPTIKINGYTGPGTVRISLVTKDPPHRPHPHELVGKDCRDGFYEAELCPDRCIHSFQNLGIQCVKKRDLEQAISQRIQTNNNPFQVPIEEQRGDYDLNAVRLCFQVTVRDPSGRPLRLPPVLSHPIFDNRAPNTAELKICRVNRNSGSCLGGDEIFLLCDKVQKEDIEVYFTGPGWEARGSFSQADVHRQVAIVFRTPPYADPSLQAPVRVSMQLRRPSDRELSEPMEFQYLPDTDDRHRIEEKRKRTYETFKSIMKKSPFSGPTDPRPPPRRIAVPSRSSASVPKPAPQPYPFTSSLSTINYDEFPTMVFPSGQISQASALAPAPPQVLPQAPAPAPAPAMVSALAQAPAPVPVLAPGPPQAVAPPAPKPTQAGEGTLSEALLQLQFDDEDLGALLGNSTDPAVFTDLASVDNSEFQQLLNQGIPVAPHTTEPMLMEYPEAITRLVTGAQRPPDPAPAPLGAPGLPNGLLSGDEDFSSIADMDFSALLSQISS
Sequence of UniProt P24666 (whole entry, looked up): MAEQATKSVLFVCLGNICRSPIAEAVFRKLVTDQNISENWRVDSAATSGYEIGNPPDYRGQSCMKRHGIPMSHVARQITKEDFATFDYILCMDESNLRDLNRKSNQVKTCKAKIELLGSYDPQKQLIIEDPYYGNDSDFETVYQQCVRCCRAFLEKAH
Sequence of UniProt O75762 (whole entry, unmodified, looked up): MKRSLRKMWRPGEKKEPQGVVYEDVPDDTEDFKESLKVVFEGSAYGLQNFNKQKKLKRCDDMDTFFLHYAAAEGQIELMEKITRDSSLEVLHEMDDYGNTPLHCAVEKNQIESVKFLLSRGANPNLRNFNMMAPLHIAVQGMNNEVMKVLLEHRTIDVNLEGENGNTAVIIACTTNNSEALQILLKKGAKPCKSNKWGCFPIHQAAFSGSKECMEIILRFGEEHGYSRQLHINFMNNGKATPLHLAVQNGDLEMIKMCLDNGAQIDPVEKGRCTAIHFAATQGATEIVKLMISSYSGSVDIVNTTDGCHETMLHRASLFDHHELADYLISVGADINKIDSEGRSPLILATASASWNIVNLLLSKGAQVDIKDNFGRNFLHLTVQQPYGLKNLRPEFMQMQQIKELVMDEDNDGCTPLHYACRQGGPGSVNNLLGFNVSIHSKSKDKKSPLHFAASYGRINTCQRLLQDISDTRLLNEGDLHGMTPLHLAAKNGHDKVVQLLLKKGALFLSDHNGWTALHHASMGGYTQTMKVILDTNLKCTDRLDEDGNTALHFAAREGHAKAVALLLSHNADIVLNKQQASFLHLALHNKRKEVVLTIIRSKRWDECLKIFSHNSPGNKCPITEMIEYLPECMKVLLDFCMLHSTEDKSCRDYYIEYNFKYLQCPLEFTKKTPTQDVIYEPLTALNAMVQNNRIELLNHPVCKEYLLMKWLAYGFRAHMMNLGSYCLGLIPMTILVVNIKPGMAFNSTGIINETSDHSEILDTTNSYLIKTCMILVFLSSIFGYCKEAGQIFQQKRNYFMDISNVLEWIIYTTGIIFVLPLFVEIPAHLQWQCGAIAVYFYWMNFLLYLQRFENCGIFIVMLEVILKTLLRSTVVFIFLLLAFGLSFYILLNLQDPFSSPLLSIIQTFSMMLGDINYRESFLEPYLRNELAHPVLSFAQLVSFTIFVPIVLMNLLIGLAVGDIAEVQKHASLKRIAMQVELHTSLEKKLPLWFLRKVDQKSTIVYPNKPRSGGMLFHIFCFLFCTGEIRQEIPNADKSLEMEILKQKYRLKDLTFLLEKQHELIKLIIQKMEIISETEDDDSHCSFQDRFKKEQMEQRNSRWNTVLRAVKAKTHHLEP
Sequence of UniProt P48547 (whole entry, looked up): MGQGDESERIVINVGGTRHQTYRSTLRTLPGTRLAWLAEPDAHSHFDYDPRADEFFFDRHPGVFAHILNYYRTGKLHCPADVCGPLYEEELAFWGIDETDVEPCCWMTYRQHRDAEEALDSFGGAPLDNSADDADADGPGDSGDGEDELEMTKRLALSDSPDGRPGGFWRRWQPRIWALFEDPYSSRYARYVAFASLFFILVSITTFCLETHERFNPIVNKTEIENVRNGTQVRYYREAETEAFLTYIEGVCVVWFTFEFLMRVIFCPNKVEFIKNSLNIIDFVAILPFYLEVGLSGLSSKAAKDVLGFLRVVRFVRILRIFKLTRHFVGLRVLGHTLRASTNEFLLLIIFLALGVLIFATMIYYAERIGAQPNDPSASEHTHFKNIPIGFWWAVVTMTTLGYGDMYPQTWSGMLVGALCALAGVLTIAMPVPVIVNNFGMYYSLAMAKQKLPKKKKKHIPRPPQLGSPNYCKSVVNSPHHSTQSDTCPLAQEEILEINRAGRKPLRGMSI
Sequence of UniProt P49286 (whole entry, looked up): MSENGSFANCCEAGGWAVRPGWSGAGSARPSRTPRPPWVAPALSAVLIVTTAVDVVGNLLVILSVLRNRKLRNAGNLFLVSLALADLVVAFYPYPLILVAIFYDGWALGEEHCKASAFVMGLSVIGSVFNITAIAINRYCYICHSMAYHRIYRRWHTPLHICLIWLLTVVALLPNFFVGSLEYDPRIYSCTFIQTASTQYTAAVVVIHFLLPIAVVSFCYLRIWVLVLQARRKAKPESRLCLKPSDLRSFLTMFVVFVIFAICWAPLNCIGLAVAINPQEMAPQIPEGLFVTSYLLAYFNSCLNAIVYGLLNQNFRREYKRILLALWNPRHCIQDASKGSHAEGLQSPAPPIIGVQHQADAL

Structure (SMILES) | target | assay | system | setting | pEC50
CC[C@H](C)[C@@H](C(=O)N[C@@H](CC(C)C)C(=O)N[C@@H](CO)C(=O)N[C@@H](CO)C(=O)N[C@H](C(=O)N[C@@H](CCC(=O)O)C(=O)N[C@H](C(=O)NCC(=O)N[C@@H](CO)C(=O)N[C@@H](CC(N)=O)C(=O)N[C@H](C(=O)N1C[C@H](O)C[C@H]1C(N)=O)[C@@H](C)O)C(C)C)[C@@H](C)O)N(C)C(=O)[C@H](C)NC(=O)CN(C)C(=O)[C@H](Cc1ccccc1)NC(=O)[C@H](CO)NC(=O)[C@H](CO)NC(=O)[C@H](CCCNC(=N)N)NC(=O)[C@H](CCC(N)=O)NC(=O)[C@H](CC(C)C)NC(=O)[C@H](Cc1ccccc1)NC(=O)[C@H](Cc1c[nH]cn1)NC(=O)[C@H](C)NC(=O)[C@H](CC(C)C)NC(=O)[C@H](CCCNC(=N)N)NC(=O)[C@H](CCC(=O)O)NC(=O)[C@@H](NC(=O)[C@H](C)NC(=O)[C@@H]1CCCCNC(=O)C[C@H](NC(=O)[C@H](CCCNC(=N)N)NC(=O)CC[C@H](NC(=O)CCCCCCCCCCCCCCCCCCC(=O)O)C(=O)O)C(=O)NCC(=O)N[C@@H]([C@@H](C)O)C(=O)N[C@@H](C)C(=O)N[C@@H]([C@@H](C)O)C(=O)N1)[C@@H](C)O | CALCR | cAMP, agonist |  |  | 9.27
CC(=O)NCCN(c1nc(N2CC3C(CCOc4cc(-c5scnc5C)ccc4CNC(=O)[C@@H]4C[C@@H](O)CN4C(=O)[C@@H](NC(=O)C4(F)CC4)C(C)(C)C)C3C2)nc(N2CC(n3ccnc3)C2)n1)C(C)C (stereo partly drawn) | VHL/BRD9 with Elongin B/C | ternary complex formation, AlphaScreen |  | with: 50 nM His-BRD9 and 20 nM biotin-VCB | 7.15
CC[C@H](C)[C@@H](C(=O)N[C@@H](CC(C)C)C(=O)N[C@@H](CO)C(=O)N[C@@H](CO)C(=O)N[C@H](C(=O)N[C@@H](CC(N)=O)C(=O)N[C@H](C(=O)NCC(=O)N[C@@H](CO)C(=O)N[C@@H](CC(N)=O)C(=O)N[C@H](C(=O)N1C[C@H](N)C[C@H]1C(N)=O)[C@@H](C)O)C(C)C)[C@@H](C)O)N(C)C(=O)[C@H](C)NC(=O)CN(C)C(=O)[C@H](Cc1ccccc1)NC(=O)[C@H](CC(N)=O)NC(=O)[C@H](CC(N)=O)NC(=O)[C@H](CO)NC(=O)[C@H](CO)NC(=O)[C@H](CCCNC(=N)N)NC(=O)[C@H](Cc1c[nH]cn1)NC(=O)[C@H](CC(C)C)NC(=O)[C@H](Cc1ccccc1)NC(=O)[C@H](CCC(=O)O)NC(=O)[C@H](C)NC(=O)[C@H](CC(C)C)NC(=O)[C@H](CCCNC(=N)N)NC(=O)[C@H](CCC(N)=O)NC(=O)[C@@H](NC(=O)[C@H](C)NC(=O)[C@@H]1CSSC[C@H](NC(=O)[C@H](CCCNC(=N)N)NC(=O)CC[C@H](NC(=O)CCCCCCCCCCCCCCCCCCC(=O)O)C(=O)O)C(=O)N[C@@H](CC(N)=O)C(=O)N[C@@H]([C@@H](C)O)C(=O)N[C@@H](C)C(=O)N[C@@H]([C@@H](C)O)C(=O)N1)[C@@H](C)O | CALCR | cAMP, agonist |  |  | 9.82
Cn1c(=O)n(C2CCC(=O)NC2=O)c2ccc(C3CCN(CC(=O)Nc4cccc(CS(=O)(=O)N5CC[C@H](Nc6cccc(-c7sc(C(=O)O)c(OCC(=O)O)c7Cl)c6)CC5(C)C)c4)CC3)cc21 (stereo partly drawn) | Low molecular weight phosphotyrosine protein phosphatase (ACP1, Homo sapiens, UniProt P24666) | phosphatase activity |  | with: DiFMUP substrate | < 5.00
O=Cc1ccc([N+](=O)[O-])c(OS(=O)(=O)C2CCOCC2)c1 | YWHAG/RELA phospho-Ser45 p65 peptide | ternary complex formation, stabilizer, fluorescence anisotropy |  |  | < 3.00
COc1cc(I)c(Cc2cc(OC)c(OC)cc2CC(=O)OC(C)(C)C)cc1OC | Melatonin receptor type 1B (MTNR1B, Homo sapiens, UniProt P49286) | GTPγS binding, agonist, radiometric |  | cell membranes | 8.13
CC(=O)NCCN(c1nc(NCc2n[nH]c3c2CCCC3)nc(N2CC3C(CCOc4cc(-c5scnc5C)ccc4CNC(=O)[C@@H]4C[C@@H](O)CN4C(=O)[C@@H](NC(=O)C4(F)CC4)C(C)(C)C)C3C2)n1)C(C)C (stereo partly drawn) | VHL/BRD9 (Homo sapiens, UniProt P40337+Q9H8M2) | ternary complex formation, NanoBiT | HEK293T | 2 h, with: MLN4924 2 µM | 6.72
O=C1C[C@H](c2nc(-c3ccc(F)c4cn[nH]c34)no2)CCCN1c1ccc(F)cc1 (racemic) | Cannabinoid receptor 2 (CNR2, Homo sapiens, UniProt P34972) | agonist, GloSensor cAMP | CHO expressing CNR2 |  | 7.59 and 7.56 and 7.57
Cc1cccc(Oc2ccc(-n3c(=O)[nH]c4cccnc43)cn2)c1C | Voltage-gated potassium channel KCNC1 (KCNC1, Homo sapiens, UniProt P48547) | ion current, activator, automated patch clamp | HEK293 expressing Kv3.1 | holding -70 mV, test -15 mV | 5.82
CC[C@H](C)[C@H](NC(=O)[C@@H]1CCCN1C(=O)CNC(=O)[C@H](Cc1ccccc1)NC(=O)[C@H](CC(N)=O)NC(=O)[C@H](CC(N)=O)NC(=O)[C@H](CO)NC(=O)[C@H](CO)NC(=O)[C@H](Cc1c[nH]cn1)NC(=O)[C@H](CCCNC(=N)N)NC(=O)[C@H](CC(C)C)NC(=O)[C@H](Cc1ccccc1)NC(=O)[C@H](CCC(=O)O)NC(=O)[C@H](C)NC(=O)[C@H](CC(C)C)NC(=O)[C@H](CCCNC(=N)N)NC(=O)[C@H](CCC(N)=O)NC(=O)[C@@H](NC(=O)[C@H](C)NC(=O)[C@@H]1CSSC[C@H](NC(=O)[C@H](CCCCN)NC(=O)CC[C@H](NC(=O)CCCCCCCCCCCCCCCCCCC(=O)O)C(=O)O)C(=O)N[C@@H](CC(N)=O)C(=O)N[C@@H]([C@@H](C)O)C(=O)N[C@@H](C)C(=O)N[C@@H]([C@@H](C)O)C(=O)N1)[C@@H](C)O)C(=O)N[C@@H](CC(C)C)C(=O)N1CCC[C@H]1C(=O)N1CCC[C@H]1C(=O)N[C@H](C(=O)N[C@@H](CC(N)=O)C(=O)N[C@H](C(=O)NCC(=O)N[C@@H](CO)C(=O)N[C@@H](CC(N)=O)C(=O)N[C@H](C(=O)N1CCC[C@H]1C(N)=O)[C@@H](C)O)C(C)C)[C@@H](C)O | Calcitonin receptor, isoform a (CALCR, Homo sapiens, UniProt P30988) | cAMP accumulation, agonist, cAMP HTRF | COS-7, BacMam expression | 30 min, without human serum albumin | 11.96
COc1cc(C2C(NC(=O)c3ccc(NC(=O)OC(C)(C)C)cc3)(C(=O)O)C(c3ccc(OC(=O)c4cccs4)c(OC)c3)C2(NC(=O)c2ccc(NC(=O)OC(C)(C)C)cc2)C(=O)O)ccc1OC(=O)c1cccs1 (stereo not drawn) | Glucagon-like peptide 1 receptor (GLP1R, Homo sapiens, UniProt P43220, F230A) | cAMP, agonist |  |  | 6.71
CC[C@H](C)[C@@H](C(=O)N[C@@H](CC(C)C)C(=O)N[C@@H](CO)C(=O)N[C@@H](CO)C(=O)N[C@H](C(=O)N[C@@H](CCC(=O)O)C(=O)N[C@H](C(=O)NCC(=O)N[C@@H](CO)C(=O)N[C@@H](CC(N)=O)C(=O)N[C@H](C(=O)N1C[C@H](O)C[C@H]1C(N)=O)[C@@H](C)O)C(C)C)[C@@H](C)O)N(C)C(=O)[C@H](C)NC(=O)CN(C)C(=O)[C@H](Cc1ccccc1)NC(=O)[C@H](CO)NC(=O)[C@H](CO)NC(=O)[C@H](CCCNC(=N)N)NC(=O)[C@H](CCC(N)=O)NC(=O)[C@H](CC(C)C)NC(=O)[C@H](Cc1ccccc1)NC(=O)[C@H](CCCC(=O)O)NC(=O)[C@H](C)NC(=O)[C@H](CC(C)C)NC(=O)[C@H](CCCNC(=N)N)NC(=O)[C@H](CCC(=O)O)NC(=O)[C@@H](NC(=O)[C@H](C)NC(=O)[C@@H]1CSSC[C@H](NC(=O)[C@H](CCCNC(=N)N)NC(=O)CC[C@H](NC(=O)CCCCCCCCCCCCCCCCCCC(=O)O)C(=O)O)C(=O)NCC(=O)N[C@@H]([C@@H](C)O)C(=O)N[C@@H](C)C(=O)N[C@@H]([C@@H](C)O)C(=O)N1)[C@@H](C)O | CALCR | cAMP, agonist |  |  | 9.82
O=Cc1ccc([N+](=O)[O-])c(OS(=O)(=O)c2ccc(F)cc2)c1 | YWHAG/RELA phospho-Ser45 p65 peptide | ternary complex formation, stabilizer, fluorescence anisotropy |  |  | < 3.00
Cc1ncsc1-c1ccc(CNC(=O)[C@@H]2C[C@@H](O)CN2C(=O)[C@@H](NC(=O)C2(F)CC2)C(C)(C)C)c(OCCC2CCN(c3nc(N(C)CCNC(=O)C(C)C)nc(N4CCn5nnc(CO)c5C4)n3)CC2)c1 | VHL/BRD9 with Elongin B/C | ternary complex formation, AlphaScreen |  | with: 50 nM His-BRD9 and 20 nM biotin-VCB | 7.17
CC[C@H](C)[C@@H](C(=O)N[C@@H](CC(C)C)C(=O)N[C@@H](CO)C(=O)N[C@@H](CO)C(=O)N[C@H](C(=O)N[C@@H](CCC(=O)O)C(=O)N[C@H](C(=O)NCC(=O)N[C@@H](CO)C(=O)N[C@@H](CC(N)=O)C(=O)N[C@H](C(=O)N1C[C@H](O)C[C@H]1C(N)=O)[C@@H](C)O)C(C)C)[C@@H](C)O)N(C)C(=O)[C@H](C)NC(=O)CN(C)C(=O)[C@H](Cc1ccccc1)NC(=O)[C@H](CO)NC(=O)[C@H](CO)NC(=O)[C@H](CCCNC(=N)N)NC(=O)[C@H](CCC(N)=O)NC(=O)[C@H](CC(C)C)NC(=O)[C@H](Cc1ccccc1)NC(=O)[C@H](Cc1c[nH]cn1)NC(=O)[C@H](C)NC(=O)[C@H](CC(C)C)NC(=O)[C@H](CCCNC(=N)N)NC(=O)[C@H](CCC(=O)O)NC(=O)[C@@H](NC(=O)[C@H](C)NC(=O)[C@@H]1CNC(=O)CCC[C@H](NC(=O)[C@H](CCCNC(=N)N)NC(=O)CC[C@H](NC(=O)CCCCCCCCCCCCCCCCCCC(=O)O)C(=O)O)C(=O)NCC(=O)N[C@@H]([C@@H](C)O)C(=O)N[C@@H](C)C(=O)N[C@@H]([C@@H](C)O)C(=O)N1)[C@@H](C)O | CALCR | cAMP, agonist |  |  | 6.42
O=C(NC[C@@H](Cc1ccc(F)cc1)N1CCC(O)(C(F)(F)F)CC1)C1(c2ccc(Cl)cc2)CCCC1 | Transient receptor potential cation channel subfamily A member 1 (TRPA1, Homo sapiens, UniProt O75762, V875A) |  |  |  | 7.82
CC[C@H](C)[C@@H](C(=O)N[C@@H](CC(C)C)C(=O)N[C@@H](CO)C(=O)N[C@@H](CO)C(=O)N[C@H](C(=O)N[C@@H](CCC(=O)O)C(=O)N[C@H](C(=O)NCC(=O)N[C@@H](CO)C(=O)N[C@@H](CO)C(=O)N[C@H](C(=O)N1C[C@H](O)C[C@H]1C(N)=O)[C@@H](C)O)C(C)C)[C@@H](C)O)N(C)C(=O)[C@H](C)NC(=O)CN(C)C(=O)[C@H](Cc1ccccc1)NC(=O)[C@H](CO)NC(=O)[C@H](CO)NC(=O)[C@H](CCCNC(=N)N)NC(=O)[C@@H](NC(=O)[C@H](CC(C)C)NC(=O)[C@H](Cc1ccccc1)NC(=O)[C@H](Cc1c[nH]cn1)NC(=O)[C@H](C)NC(=O)[C@H](CC(C)C)NC(=O)[C@H](CCCNC(=N)N)NC(=O)[C@H](CCC(=O)O)NC(=O)[C@@H](NC(=O)[C@H](C)NC(=O)[C@@H]1CSSC[C@H](NC(=O)[C@H](CCCNC(=N)N)NC(=O)CC[C@H](NC(=O)CCCCCCCCCCCCCCCCCCC(=O)O)C(=O)O)C(=O)NCC(=O)N[C@@H]([C@@H](C)O)C(=O)N[C@@H](C)C(=O)N[C@@H]([C@@H](C)O)C(=O)N1)[C@@H](C)O)[C@@H](C)O | CALCR | cAMP, agonist |  |  | 10.01
CC(=O)NCC1CCCCN1c1nc(N(C)CCc2ncc(C)s2)nc(N2CC3C(CCOc4cc(-c5scnc5C)ccc4CNC(=O)[C@@H]4C[C@@H](O)CN4C(=O)[C@@H](NC(=O)C4(F)CC4)C(C)(C)C)C3C2)n1 (stereo partly drawn) | VHL/BRD9 with Elongin B/C | ternary complex formation, AlphaScreen |  | with: 50 nM His-BRD9 and 20 nM biotin-VCB | 6.53

For quick reference, copied from above:
Structure (SMILES) | target | assay | system | setting | pEC50
CC(=O)NCC1CCCCN1c1nc(N(C)CCc2ncc(C)s2)nc(N2CC3C(CCOc4cc(-c5scnc5C)ccc4CNC(=O)[C@@H]4C[C@@H](O)CN4C(=O)[C@@H](NC(=O)C4(F)CC4)C(C)(C)C)C3C2)n1 (stereo partly drawn) | VHL/BRD9 with Elongin B/C | ternary complex formation, AlphaScreen |  | with: 50 nM His-BRD9 and 20 nM biotin-VCB | 6.53
